Measured values of several laboratories.
Each numbered part is a random draw from the data of one study; scales do not carry over between parts. pIC50: −log10 of the molar value.
UniProt Q08345, sequence (whole entry, looked up): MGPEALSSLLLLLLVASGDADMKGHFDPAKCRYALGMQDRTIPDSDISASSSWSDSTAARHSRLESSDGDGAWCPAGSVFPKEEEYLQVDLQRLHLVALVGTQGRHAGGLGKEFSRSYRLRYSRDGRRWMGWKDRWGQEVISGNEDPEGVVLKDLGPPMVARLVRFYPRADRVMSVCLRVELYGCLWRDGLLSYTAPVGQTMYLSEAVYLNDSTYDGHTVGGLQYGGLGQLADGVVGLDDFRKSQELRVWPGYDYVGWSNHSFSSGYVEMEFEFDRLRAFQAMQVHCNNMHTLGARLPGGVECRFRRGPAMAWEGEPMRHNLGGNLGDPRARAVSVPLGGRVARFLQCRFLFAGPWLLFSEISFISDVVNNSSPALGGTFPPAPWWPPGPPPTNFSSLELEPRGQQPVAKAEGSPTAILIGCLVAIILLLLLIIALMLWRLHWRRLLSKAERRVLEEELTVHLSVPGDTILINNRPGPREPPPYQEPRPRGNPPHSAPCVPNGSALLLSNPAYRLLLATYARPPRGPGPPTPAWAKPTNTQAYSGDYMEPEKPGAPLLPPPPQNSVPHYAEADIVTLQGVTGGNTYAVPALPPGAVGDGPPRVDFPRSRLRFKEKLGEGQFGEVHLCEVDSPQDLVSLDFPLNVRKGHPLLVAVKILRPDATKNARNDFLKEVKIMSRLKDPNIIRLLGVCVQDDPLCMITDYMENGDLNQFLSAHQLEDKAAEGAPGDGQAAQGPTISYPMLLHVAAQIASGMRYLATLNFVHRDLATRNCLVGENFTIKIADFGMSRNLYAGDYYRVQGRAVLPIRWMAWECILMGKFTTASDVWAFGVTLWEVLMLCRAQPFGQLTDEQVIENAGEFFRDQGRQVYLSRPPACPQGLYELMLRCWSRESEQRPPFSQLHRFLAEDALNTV

Series 1 — cell line: A-375; concentration: 100 µM; time: 36 h
| SMILES | viability [%] |
| --- | --- |
| CCOC(=O)O[C@]1(C(=O)OCCl)CC[C@H]2[C@@H]3CCC4=CC(=O)C=C[C@]4(C)[C@H]3[C@@H](O)C[C@@]21C | 64.8 |
| O=C(c1ccccc1)c1ccc2n1CCC2C(=O)O (stereo not drawn) | 39.7 |
| O=c1oc2ccccc2c(O)c1Cc1c(O)c2ccccc2oc1=O | 32.9 |
| CNC(=O)c1cnn(-c2nc(N)c3ncn([C@@H]4O[C@H](CO)[C@@H](O)[C@H]4O)c3n2)c1 | 101 |
| COc1c(C)c2c(c(O)c1C/C=C(\C)CCC(=O)O)C(=O)OC2 | 33.1 |
| COc1cc(Cc2cnc(N)nc2N)cc(OC)c1OC | 101 |

Series 2 — method: phase 2a trial; species: idiopathic pulmonary fibrosis patients
SMILES: CC(C)n1cnc(-c2ccc(F)cc2)c1-c1ncc(C(=O)Nc2ccc(N3CCN(C)CC3)cc2)[nH]1
| refers to | dose | setting | adverse event incidence [%] |
| --- | --- | --- | --- |
| weight decreased | dose not given | grade 5, all arms pooled | 0 |
| ECG ST segment abnormal | 60 mg once daily | grade 2 | 0 |
| ECG ST segment abnormal | 60 mg once daily | grade 1 | 0 |
| liver injury | dose not given | grade 5, all arms pooled | 0 |

Mixed results
| Structure (SMILES) | target or system | assay | system | setting | how to read | endpoint | value |
| --- | --- | --- | --- | --- | --- | --- | --- |
| Cc1cc(C)c(-n2ccn3nc(-c4cccnc4)cc23)cc1NC(=O)c1cc(C#N)cc(S(F)(F)(F)(F)F)c1 | Epithelial discoidin domain-containing receptor 1 (DDR1, Homo sapiens, UniProt Q08345) | target engagement in cells, BRET |  |  |  | pIC50 | 8.52 |
| CC(=O)N[C@@H](Cc1c[nH]c2ccccc12)C(=O)N[C@@H](CCC(=O)C=[N+]=[N-])C(=O)OC(C)C |  | histopathology | mouse C57BL/6 CES1-/-, GI tissue | subcutaneous, 0.8 mg/kg | direction not given | GI epithelial change score | 0 |

Some of these lines once more (series 1):
| SMILES | viability [%] |
| --- | --- |
| CNC(=O)c1cnn(-c2nc(N)c3ncn([C@@H]4O[C@H](CO)[C@@H](O)[C@H]4O)c3n2)c1 | 101 |
